Experimental data from different studies.
Protocols differ between the studies behind these lines. Values joined by “and” are separate records of one study, mostly repeats; a detail may differ. Numbers after ± are the reported error.

`C/C=C(/C)C(=O)OC[C@H]1[C@@H](Cc2ccc(C(C)(C)C)cc2)CO[C@@H]1c1ccc(OC)c(OC)c1` has a viability of 68 ± 17% (HEK293/NF-κB-luc; CellTracker Green CMFDA; 20 µM, 4.5 h, serum-free medium; baseline: stimulated untreated cells).
For `CN1CCCNC(=O)c2cccc(c2)C(=O)NCCCN(C)CCCNc2cccc3c2C(=O)c2cccc(c2C3=O)NCCC1`, the viability was 66.3% (HeLa; cell growth or viability, CCK-8; 0.15 µM, 48 h).
`CC1(C)CC(=O)C2=C(C1)Oc1ccc3ccccc3c1C2c1c[nH]c2ccccc12` (centres unmarked) gave a viability of 104% (3T3-L1 mature adipocytes; MTT; IC20, 6 days, lipolysis conditions; baseline: untreated).
With `N=C(N)NCCC[C@@H]1NC(=O)[C@H](CCCNC(=N)N)NC(=O)[C@@H](CCCNC(=N)N)NC(=O)[C@@H](CCCNC(=N)N)NC(=O)[C@@H](C(c2ccccc2)c2ccccc2)NC(=O)[C@@H](Cc2c[nH]c3ccccc23)NC(=O)[C@@H](C(c2ccccc2)c2ccccc2)NC1=O` the viability was 62% (MRC5; cell growth or viability, MTS; 200 µg/mL, 24 h).
`O=C(c1ccc([C@H]2[C@@H](F)[C@@H](F)C[C@@H](F)[C@H]2F)cc1)N1CCC(F)CC1` gave a hepatic clearance of 7.3 mL/min/kg (liver microsome stability; dog liver microsomes; 1 µM).
The viability of `[BH3-][P+]1(c2ccccc2)CCCCC1` is reported as 96.7% (HaCaT; trypan blue; IC50, 72 h).
`O=CCNCCOn1c(=O)n(OCCNCCO)c(=O)n(OCCNCCOn2c(=O)n(OCCNCCO)c(=O)n(OCCNCCO)c2=O)c1=O` has a viability of 10.2% (HUVEC; cell growth or viability, MTT; 100 µg/mL, 72 h).
`N=C(N)NCCC[C@@H]1NC(=O)[C@H](CCCNC(=N)N)NC(=O)[C@@H](Cc2ccc3ccccc3c2)NC(=O)[C@H](Cc2c[nH]c3ccccc23)NC(=O)[C@@H](Cc2ccc3ccccc3c2)NC(=O)[C@@H](CCCNC(=N)N)NC(=O)[C@@H](CCCNC(=N)N)NC1=O` has a viability of 61 to 65% (MRC5; cell growth or viability, MTS; 200 µg/mL, 24 h).
For `COc1cc(/C=C/C=C2\SC(=S)NC2=O)ccc1O`, the viability was 0.979 and 0.887 (HeLa; CellTiter-Glo; 5 µM, 24 h, unit not given; baseline: untreated).
For `F[C@@H]1[C@H](c2ccc(-c3cncnc3)cc2)[C@H](F)[C@H](F)C[C@@H]1F`, the hepatic clearance was 14 mL/min/kg (liver microsome stability; dog liver microsomes; 1 µM).
For `COc1cc(N2CCN(C(=O)CCOCCNC(=O)[C@@H]3CCCN3)CC2)ccc1Nc1ncc(Cl)c(Nc2ccccc2P(C)(C)=O)n1`, the viability was 16% and 18% and 19% (NCI-H3122; CCK-8; 5 µM, 48 h).
For `C/C=C(/C)C(=O)OC[C@H]1[C@@H](Cc2ccc(C(C)(C)C)cc2)CO[C@@H]1c1ccc(F)cc1`, the viability was 95 ± 10% (HEK293/NF-κB-luc; CellTracker Green CMFDA; 20 µM, 4.5 h, serum-free medium; baseline: stimulated untreated cells).
For `CC1(F)CN(C(=O)Cn2c(=O)c(C(=O)NCc3ccc(Cl)cc3)cc3nc(N4CCN(CCN)C4=O)cnc32)C1`, the viability was 90% (MRC5; cell growth or viability, CCK-8; 40 µM).
The viability of `N=C(N)NCCC[C@@H]1NC(=O)[C@@H](CCCNC(=N)N)NC(=O)[C@H](CCCNC(=N)N)NC(=O)[C@@H](Cc2ccc3ccccc3c2)NC(=O)[C@@H](Cc2ccc3ccccc3c2)NC(=O)[C@@H](Cc2ccc3ccccc3c2)NC(=O)[C@@H](CCCNC(=N)N)NC1=O` is reported as 61 to 70% (MRC5; cell growth or viability, MTS; 150 µg/mL, 24 h).

A few entries again:
`O=C(c1ccc([C@H]2[C@@H](F)[C@@H](F)C[C@@H](F)[C@H]2F)cc1)N1CCC(F)CC1` gave a hepatic clearance of 7.3 mL/min/kg (liver microsome stability; dog liver microsomes; 1 µM).
